Measurements pooled from the literature.
Numbered parts are unrelated; each lists some results of a single study. Several values in a cell are separate wells, animals, samples, runs or records.
UniProt P15056, sequence (whole entry, unmodified, looked up): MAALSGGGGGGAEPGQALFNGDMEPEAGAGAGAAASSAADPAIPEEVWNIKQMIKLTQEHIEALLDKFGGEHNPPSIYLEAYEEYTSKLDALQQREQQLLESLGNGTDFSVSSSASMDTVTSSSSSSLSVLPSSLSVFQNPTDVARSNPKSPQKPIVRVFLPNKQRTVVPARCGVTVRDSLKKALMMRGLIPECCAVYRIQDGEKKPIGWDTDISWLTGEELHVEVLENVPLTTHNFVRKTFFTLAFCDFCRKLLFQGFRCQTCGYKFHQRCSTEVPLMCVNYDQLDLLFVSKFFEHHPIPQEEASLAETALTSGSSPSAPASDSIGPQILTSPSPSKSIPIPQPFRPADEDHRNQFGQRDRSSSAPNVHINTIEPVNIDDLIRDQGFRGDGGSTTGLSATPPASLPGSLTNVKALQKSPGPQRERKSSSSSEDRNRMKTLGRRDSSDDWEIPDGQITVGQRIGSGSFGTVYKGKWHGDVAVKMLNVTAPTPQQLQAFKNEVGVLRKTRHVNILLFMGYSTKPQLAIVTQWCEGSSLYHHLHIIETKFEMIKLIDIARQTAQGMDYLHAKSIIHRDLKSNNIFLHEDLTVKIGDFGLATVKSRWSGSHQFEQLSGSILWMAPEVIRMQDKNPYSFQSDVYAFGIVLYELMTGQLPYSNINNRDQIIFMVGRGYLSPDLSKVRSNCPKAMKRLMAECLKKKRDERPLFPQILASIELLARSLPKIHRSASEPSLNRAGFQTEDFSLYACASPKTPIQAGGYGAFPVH
UniProt Q9H4B4, sequence (whole entry, looked up): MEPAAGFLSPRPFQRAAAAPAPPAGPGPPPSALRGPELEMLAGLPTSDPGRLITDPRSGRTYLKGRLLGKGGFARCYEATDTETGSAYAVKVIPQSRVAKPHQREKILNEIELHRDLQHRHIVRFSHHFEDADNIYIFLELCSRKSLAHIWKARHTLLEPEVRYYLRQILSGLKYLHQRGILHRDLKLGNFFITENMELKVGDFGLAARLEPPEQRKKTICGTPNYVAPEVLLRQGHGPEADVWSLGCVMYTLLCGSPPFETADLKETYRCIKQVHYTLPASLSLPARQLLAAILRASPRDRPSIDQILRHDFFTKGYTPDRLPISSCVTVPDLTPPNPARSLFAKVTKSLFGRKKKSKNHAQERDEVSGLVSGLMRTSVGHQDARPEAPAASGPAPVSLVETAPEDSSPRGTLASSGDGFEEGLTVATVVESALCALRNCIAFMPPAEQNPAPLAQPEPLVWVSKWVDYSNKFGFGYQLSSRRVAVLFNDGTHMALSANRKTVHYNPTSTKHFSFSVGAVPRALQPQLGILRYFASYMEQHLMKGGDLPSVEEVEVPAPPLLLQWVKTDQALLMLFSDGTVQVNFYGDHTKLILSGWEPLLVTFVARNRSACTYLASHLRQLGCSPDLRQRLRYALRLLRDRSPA
UniProt Q92918, sequence (whole entry, looked up): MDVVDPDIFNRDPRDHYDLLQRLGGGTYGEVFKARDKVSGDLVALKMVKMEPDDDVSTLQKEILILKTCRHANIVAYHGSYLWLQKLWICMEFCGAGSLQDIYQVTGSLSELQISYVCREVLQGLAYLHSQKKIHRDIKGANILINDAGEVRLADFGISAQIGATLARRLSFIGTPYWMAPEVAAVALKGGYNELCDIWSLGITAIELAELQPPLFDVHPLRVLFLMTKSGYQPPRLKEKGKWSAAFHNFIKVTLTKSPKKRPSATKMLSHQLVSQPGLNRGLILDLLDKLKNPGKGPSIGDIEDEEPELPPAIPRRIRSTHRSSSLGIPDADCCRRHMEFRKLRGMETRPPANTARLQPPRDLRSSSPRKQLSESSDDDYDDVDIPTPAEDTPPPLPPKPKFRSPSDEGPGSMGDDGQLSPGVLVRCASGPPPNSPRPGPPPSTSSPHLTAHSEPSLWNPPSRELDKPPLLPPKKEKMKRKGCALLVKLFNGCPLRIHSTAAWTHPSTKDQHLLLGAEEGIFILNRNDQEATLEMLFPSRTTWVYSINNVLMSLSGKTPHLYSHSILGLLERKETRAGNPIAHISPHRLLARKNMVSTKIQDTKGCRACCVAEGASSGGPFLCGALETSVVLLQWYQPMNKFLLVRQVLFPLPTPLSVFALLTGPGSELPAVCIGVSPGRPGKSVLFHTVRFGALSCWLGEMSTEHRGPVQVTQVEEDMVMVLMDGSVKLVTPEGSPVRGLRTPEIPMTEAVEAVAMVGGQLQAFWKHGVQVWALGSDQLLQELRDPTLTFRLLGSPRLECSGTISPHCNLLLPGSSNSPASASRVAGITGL
UniProt Q12866, sequence (whole entry, looked up): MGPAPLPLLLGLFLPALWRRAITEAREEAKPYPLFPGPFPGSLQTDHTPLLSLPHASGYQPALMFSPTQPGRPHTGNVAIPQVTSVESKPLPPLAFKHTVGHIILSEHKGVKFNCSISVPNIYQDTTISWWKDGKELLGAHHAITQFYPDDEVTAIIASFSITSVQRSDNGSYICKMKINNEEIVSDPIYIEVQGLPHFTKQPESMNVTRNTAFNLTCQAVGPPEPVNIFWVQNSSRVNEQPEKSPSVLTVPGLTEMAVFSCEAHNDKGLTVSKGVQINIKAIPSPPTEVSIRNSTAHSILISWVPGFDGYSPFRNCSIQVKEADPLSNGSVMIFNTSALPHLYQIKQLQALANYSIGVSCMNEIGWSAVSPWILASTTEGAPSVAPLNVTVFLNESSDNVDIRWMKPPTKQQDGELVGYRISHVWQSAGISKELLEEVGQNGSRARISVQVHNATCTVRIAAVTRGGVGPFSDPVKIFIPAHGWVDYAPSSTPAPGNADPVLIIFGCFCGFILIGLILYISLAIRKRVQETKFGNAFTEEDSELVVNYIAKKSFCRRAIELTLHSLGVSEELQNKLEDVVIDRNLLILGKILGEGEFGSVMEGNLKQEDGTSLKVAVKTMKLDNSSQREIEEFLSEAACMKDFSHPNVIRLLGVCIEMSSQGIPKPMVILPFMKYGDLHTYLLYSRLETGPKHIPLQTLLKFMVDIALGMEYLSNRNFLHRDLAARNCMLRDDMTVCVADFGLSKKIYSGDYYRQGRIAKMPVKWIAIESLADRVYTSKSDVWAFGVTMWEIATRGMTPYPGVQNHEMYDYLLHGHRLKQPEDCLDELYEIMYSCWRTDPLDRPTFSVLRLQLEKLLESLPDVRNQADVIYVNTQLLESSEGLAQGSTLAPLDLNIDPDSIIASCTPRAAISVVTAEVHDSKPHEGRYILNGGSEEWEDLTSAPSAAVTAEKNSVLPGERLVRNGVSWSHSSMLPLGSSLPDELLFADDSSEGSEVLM
UniProt O60285, sequence (whole entry, looked up): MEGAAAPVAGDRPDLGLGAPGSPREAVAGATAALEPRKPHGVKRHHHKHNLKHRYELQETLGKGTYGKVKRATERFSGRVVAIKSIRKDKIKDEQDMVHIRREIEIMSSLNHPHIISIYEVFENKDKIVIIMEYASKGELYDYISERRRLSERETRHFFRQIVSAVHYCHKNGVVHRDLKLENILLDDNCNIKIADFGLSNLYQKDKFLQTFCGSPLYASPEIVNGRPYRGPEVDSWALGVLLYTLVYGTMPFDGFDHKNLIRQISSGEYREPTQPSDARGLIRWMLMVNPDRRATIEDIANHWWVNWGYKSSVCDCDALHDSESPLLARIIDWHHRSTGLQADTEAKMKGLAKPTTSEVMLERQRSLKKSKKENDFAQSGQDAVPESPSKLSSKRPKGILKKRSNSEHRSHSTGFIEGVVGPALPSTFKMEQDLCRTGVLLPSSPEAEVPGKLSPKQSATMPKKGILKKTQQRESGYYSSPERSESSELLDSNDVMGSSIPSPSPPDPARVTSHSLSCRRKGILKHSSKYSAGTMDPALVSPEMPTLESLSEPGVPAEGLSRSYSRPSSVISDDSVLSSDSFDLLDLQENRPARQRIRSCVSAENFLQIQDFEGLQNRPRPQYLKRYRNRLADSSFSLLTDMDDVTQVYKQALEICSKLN
UniProt Q00535, sequence (whole entry, looked up): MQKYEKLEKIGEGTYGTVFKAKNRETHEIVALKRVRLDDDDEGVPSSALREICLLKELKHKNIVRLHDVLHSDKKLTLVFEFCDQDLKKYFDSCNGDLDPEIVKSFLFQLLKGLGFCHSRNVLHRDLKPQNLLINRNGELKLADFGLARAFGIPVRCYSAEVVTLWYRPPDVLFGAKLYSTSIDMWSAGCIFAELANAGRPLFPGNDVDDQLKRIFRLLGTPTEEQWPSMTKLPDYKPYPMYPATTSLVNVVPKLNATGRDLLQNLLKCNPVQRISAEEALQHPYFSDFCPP

Sample 1 — cell line: mouse MPNST tumor cells; technique: high-content immunofluorescence imaging; measured: nuclear SOX9; concentration: 10 µM; time: 12 h; setting: mean of 2 replicates; baseline: DMSO control; reading: higher = more nuclear SOX9; measurement: nuclear SOX9 intensity
SMILES = COc1ccc(C(=O)c2ccccc2O)c(O)c1; result = 100 % of DMSO
SMILES = CC(C)Oc1ncc(-c2nc(-c3cccc4c3ccn4CCCC(=O)O)no2)cc1Cl; result = 97.7 % of DMSO
SMILES = COc1cc2c(cc1-c1c(C)noc1C)ncc1[nH]c(=O)n([C@H](C)c3ccccn3)c12; result = 142 % of DMSO
SMILES = CCOC1O[C@H]([C@@H](COCc2ccccc2)OCc2ccccc2)[C@H](OCc2ccccc2)[C@H]1O (stereo partly shown); result = 104 % of DMSO
SMILES = NC(=O)NC1NC(=O)NC1=O (stereo not shown); result = 105 % of DMSO
SMILES = CC(=O)Oc1ccccc1C(=O)Oc1ccccc1C(=O)O; result = 106 % of DMSO
SMILES = Nc1ccc(S(=O)(=O)Nc2ccc(Cl)nn2)cc1; result = 99 % of DMSO
SMILES = Cc1nc(Nc2ccc(F)cc2)sc1C(=O)c1ccsc1; result = 123 % of DMSO
SMILES = Cc1ccccc1COc1ccc(C2C3=C(CC(C)(C)CC3=O)OC3=C2C(=O)CC(C)(C)C3)cc1; result = 112 % of DMSO
SMILES = CC(=O)N(O)CCCCCNC(=O)CCC(=O)N(O)CCCCCNC(=O)CCC(=O)N(O)CCCCCN; result = 123 % of DMSO
SMILES = Clc1ccc2c(c1)C(N1CCNCC1)=Nc1ccccc1O2; result = 165 % of DMSO and 173 % of DMSO
SMILES = Nc1ccc(S(=O)(=O)Nc2ccccn2)cc1; result = 102 % of DMSO
SMILES = COCCOC(=O)C1=C(C)NC(C)=C(C(=O)OC(C)C)C1c1cccc([N+](=O)[O-])c1 (stereo not shown); result = 107 % of DMSO

Sample 2 — effect on: enzyme activity; action: inhibitor; concentration: 0.5 µM; baseline: control; measurement: remaining activity
Target: Beta-adrenergic receptor kinase 1 (GRK2, Homo sapiens, UniProt P25098)
UniProt P25098, sequence (whole entry, looked up): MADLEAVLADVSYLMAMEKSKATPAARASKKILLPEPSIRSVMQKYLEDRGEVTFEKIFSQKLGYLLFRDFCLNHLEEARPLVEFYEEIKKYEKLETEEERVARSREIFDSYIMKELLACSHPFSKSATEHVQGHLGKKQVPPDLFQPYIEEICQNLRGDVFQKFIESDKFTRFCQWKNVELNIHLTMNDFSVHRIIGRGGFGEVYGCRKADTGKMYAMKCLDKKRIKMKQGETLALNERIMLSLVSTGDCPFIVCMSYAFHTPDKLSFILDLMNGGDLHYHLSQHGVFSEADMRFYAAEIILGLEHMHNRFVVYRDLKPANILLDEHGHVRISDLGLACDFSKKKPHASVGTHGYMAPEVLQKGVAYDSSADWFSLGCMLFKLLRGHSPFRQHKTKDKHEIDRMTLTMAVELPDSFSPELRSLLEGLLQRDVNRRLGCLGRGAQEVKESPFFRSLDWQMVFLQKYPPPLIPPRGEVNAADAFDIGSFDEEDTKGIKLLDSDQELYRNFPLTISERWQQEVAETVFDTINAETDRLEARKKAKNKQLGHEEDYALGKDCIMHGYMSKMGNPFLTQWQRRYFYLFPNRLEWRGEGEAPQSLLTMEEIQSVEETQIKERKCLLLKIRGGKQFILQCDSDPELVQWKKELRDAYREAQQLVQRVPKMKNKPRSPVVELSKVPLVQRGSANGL
SMILES = N#CC(c1ccnc(NCCc2cccnc2)n1)c1nc2ccccc2s1 (stereo not shown); result = 103%
SMILES = Nc1nc(Nc2ccc(S(N)(=O)=O)cc2)nn1C(=S)Nc1c(F)cccc1F; result = 97.8%
SMILES = NC(=O)c1ccc(-c2nc(-c3ccc4c(c3)OCCO4)c(-c3ccccn3)[nH]2)cc1; result = 98.9%
SMILES = CCCCc1c(-c2ccc(O)cc2)[nH]c2nccnc12; result = 76.5%
SMILES = CC(C)n1cnc2c(Nc3cccc(Cl)c3)nc(NCCO)nc21; result = 96%
SMILES = Clc1ccc(Nc2nnc(Cc3ccncc3)c3ccccc23)cc1; result = 102%
SMILES = O=Nc1c(-c2c(O)[nH]c3ccccc23)[nH]c2ccccc12; result = 89.5%
SMILES = c1cc(-c2cnn3cc(-c4ccc(OCCN5CCCCC5)cc4)cnc23)ccn1; result = 81.8%
SMILES = CC(C)(C)c1nc2c3cc[nH]c(=O)c3c3cc(F)ccc3c2[nH]1; result = 98.5%
SMILES = O=C(O)/C=C/c1cc(Br)c(Br)c(Br)c1Br; result = 97.9%
SMILES = NC(=O)c1cccc(-c2cc(Nc3ccc(OC(F)(F)F)cc3)ncn2)c1; result = 96.1%
SMILES = CCN(CC)CCCCN1c2ccccc2Oc2ccc(Cl)cc21; result = 96.5%
SMILES = COc1cc2c(Nc3ccc(Br)cc3F)ncnc2cc1OCC1CCN(C)CC1; result = 92.2%
SMILES = COc1cc2c(N3CCN(C(=O)Nc4ccc(OC(C)C)cc4)CC3)ncnc2cc1OCCCN1CCCCC1; result = 98%
SMILES = O=C1NC(=O)/C(=C/c2ccc3c(c2)OC(F)(F)O3)S1; result = 103%
SMILES = C[C@@H](N)[C@H]1CC[C@H](C(=O)Nc2ccncc2)CC1; result = 99.1%
SMILES = CNc1cc2c(Nc3cccc(Br)c3)ncnc2cn1; result = 97%
SMILES = O=C(c1ccccc1)c1ccc(N2CCOCC2)cc1O; result = 99.6%
SMILES = N#C/C(=C(/N)SC1C=CC=CC1)c1cccc(C(O)c2ccncc2)c1 (stereo not shown); result = 110%
SMILES = FC(F)(F)c1ccc(/C=C/c2nc(COc3ccc(CCCCn4ccnn4)cc3)co2)cc1; result = 113%
SMILES = CC(C)N(CCC(=O)c1ccc2ccccc2c1)Cc1ccccc1; result = 106%

Sample 3 — concentration: 1 µM; measurement: remaining binding
Structure (SMILES): CN1CCN(C(=O)c2ccc(NC(=O)Nc3ccc(N(C)c4ccnc(Nc5ccc(CS(C)(=O)=O)cc5)n4)cc3)cc2)CC1
target = NUAK family SNF1-like kinase 1 (NUAK1, Homo sapiens, UniProt O60285); assay = competitive binding panel, measured: ARK5; how to read = baseline: vehicle; result = 78%
target = Dual specificity testis-specific protein kinase 1 (TESK1, Homo sapiens, UniProt Q15569); assay = competitive binding panel; how to read = baseline: vehicle; result = 100%
target = Cyclin-dependent kinase 14 (CDK14, Homo sapiens, UniProt O94921); assay = competitive binding panel, measured: PFTK1; how to read = baseline: vehicle; result = 81%
target = Serine/threonine-protein kinase PLK3 (PLK3, Homo sapiens, UniProt Q9H4B4); assay = competitive binding panel; how to read = baseline: vehicle; result = 100%
target = Calcium/calmodulin-dependent protein kinase kinase 2 (CAMKK2, Homo sapiens, UniProt Q96RR4); assay = competitive binding panel; how to read = baseline: vehicle; result = 100%
target = NUAK family SNF1-like kinase 2 (NUAK2, Homo sapiens, UniProt Q9H093); assay = competitive binding; conditions = SNARK; result = 39%
target = Megakaryocyte-associated tyrosine-protein kinase (MATK, Homo sapiens, UniProt P42679); assay = competitive binding; conditions = CTK; result = 100%
target = Calcium/calmodulin-dependent protein kinase type II subunit beta (CAMK2B, Homo sapiens, UniProt Q13554); assay = competitive binding panel; how to read = baseline: vehicle; result = 86%
target = Death-associated protein kinase 2 (DAPK2, Homo sapiens, UniProt Q9UIK4); assay = competitive binding panel; how to read = baseline: vehicle; result = 100%
target = Mitogen-activated protein kinase 15 (MAPK15, Homo sapiens, UniProt Q8TD08); assay = competitive binding panel, measured: ERK8; how to read = baseline: vehicle; result = 25%
target = Receptor-type tyrosine-protein kinase FLT3 (FLT3, Homo sapiens, UniProt P36888); assay = competitive binding panel; how to read = baseline: vehicle; result = 1.5%

Sample 4 — technique: competition with immobilised ligand; concentration: 1 µM; measurement: remaining binding
Structure (SMILES): Cc1noc([C@H]2C[C@@H](c3ccc(C(F)(F)F)cc3)CN(C(=O)N3CCS(=O)(=O)C3)C2)n1
target = Casein kinase I isoform gamma-2 (CSNK1G2, Homo sapiens, UniProt P78368); assay = cell-free assay; result = 100%
target = Serine/threonine-protein kinase PLK3 (PLK3, Homo sapiens, UniProt Q9H4B4); assay = cell-free assay; result = 88%
target = Cyclin-dependent kinase 9 (CDK9, Homo sapiens, UniProt P50750); assay = cell-free assay; result = 100%
target = Serine/threonine-protein kinase B-raf (BRAF, Homo sapiens, UniProt P15056, V600E); assay = cell-free assay; result = 89%
target = Mitogen-activated protein kinase kinase kinase kinase 1 (MAP4K1, Homo sapiens, UniProt Q92918); assay = cell-free assay; result = 100%
target = Receptor-type tyrosine-protein kinase FLT3 (FLT3, Homo sapiens, UniProt P36888, N841I); assay = cell-free assay; result = 100%
target = Phosphatidylinositol 4,5-bisphosphate 3-kinase catalytic subunit alpha isoform (PIK3CA, Homo sapiens, UniProt P42336, E545K); assay = cell-free assay; result = 65%
target = Tyrosine-protein kinase JAK1, JH2 (JAK1, Homo sapiens, UniProt P23458); assay = cell-free assay; result = 74%
target = Ankyrin repeat and protein kinase domain-containing protein 1 (ANKK1, Homo sapiens, UniProt Q8NFD2); assay = cell-free assay; result = 100%
target = Cyclin-dependent kinase 11B (CDK11B, Homo sapiens, UniProt P21127); assay = cell-free assay; result = 100%
target = Phosphatidylinositol 4,5-bisphosphate 3-kinase catalytic subunit beta isoform (PIK3CB, Homo sapiens, UniProt P42338); assay = cell-free assay; result = 99%
target = Serine/threonine-protein kinase 38-like (STK38L, Homo sapiens, UniProt Q9Y2H1); assay = binding; result = 100%
target = Serine/threonine-protein kinase LATS1 (LATS1, Homo sapiens, UniProt O95835); assay = cell-free assay; result = 100%
target = Serine/threonine-protein kinase B-raf (BRAF, Homo sapiens, UniProt P15056); assay = cell-free assay; result = 97%
target = Casein kinase I isoform gamma-1 (CSNK1G1, Homo sapiens, UniProt Q9HCP0); assay = cell-free assay; result = 100%
target = Tyrosine-protein kinase Mer (MERTK, Homo sapiens, UniProt Q12866); assay = cell-free assay; result = 100%
target = Vascular endothelial growth factor receptor 3 (FLT4, Homo sapiens, UniProt P35916); assay = cell-free assay; result = 100%
target = Serine/threonine-protein kinase pim-1 (PIM1, Homo sapiens, UniProt P11309); assay = cell-free assay; result = 100%
target = Cyclin-dependent kinase 5 (CDK5, Homo sapiens, UniProt Q00535); assay = cell-free assay; result = 100%
target = Insulin-like growth factor 1 receptor (IGF1R, Homo sapiens, UniProt P08069); assay = cell-free assay; result = 100%
target = cAMP-dependent protein kinase catalytic subunit beta (PRKACB, Homo sapiens, UniProt P22694); assay = cell-free assay; result = 100%
target = cAMP-dependent protein kinase catalytic subunit alpha (PRKACA, Homo sapiens, UniProt P17612); assay = cell-free assay; result = 100%
target = LIM domain kinase 1 (LIMK1, Homo sapiens, UniProt P53667); assay = cell-free assay; result = 100%
target = Mitotic checkpoint serine/threonine-protein kinase BUB1 (BUB1, Homo sapiens, UniProt O43683); assay = cell-free assay; result = 100%
target = Phosphatidylinositol 4-kinase beta (PI4KB, Homo sapiens, UniProt Q9UBF8); assay = cell-free assay; result = 93%

Excerpt of the above (sample 4):
target = Ankyrin repeat and protein kinase domain-containing protein 1 (ANKK1, Homo sapiens, UniProt Q8NFD2); assay = cell-free assay; result = 100%
target = Mitotic checkpoint serine/threonine-protein kinase BUB1 (BUB1, Homo sapiens, UniProt O43683); assay = cell-free assay; result = 100%
target = Serine/threonine-protein kinase 38-like (STK38L, Homo sapiens, UniProt Q9Y2H1); assay = binding; result = 100%
target = cAMP-dependent protein kinase catalytic subunit beta (PRKACB, Homo sapiens, UniProt P22694); assay = cell-free assay; result = 100%
target = LIM domain kinase 1 (LIMK1, Homo sapiens, UniProt P53667); assay = cell-free assay; result = 100%
target = Vascular endothelial growth factor receptor 3 (FLT4, Homo sapiens, UniProt P35916); assay = cell-free assay; result = 100%
target = Cyclin-dependent kinase 5 (CDK5, Homo sapiens, UniProt Q00535); assay = cell-free assay; result = 100%
target = Cyclin-dependent kinase 11B (CDK11B, Homo sapiens, UniProt P21127); assay = cell-free assay; result = 100%
